Published values from different studies.
Every numbered part comes from another study and shows a few of its results, in no order. Values joined by “and” are separate records of one study, mostly repeats; a detail may differ. Substitutions count along the parent as printed.

Set 1
Target: CCNB3, cyclin fold, Cln2 fusion (human)
Technique: yeast growth competition, sequencing
Matrix: yeast
Setting: weak parent motif
Baseline: not given
Reading: higher = stronger binding
Starting sequence: SLBP docking peptide (human); ARYKRKLLINDFG; partner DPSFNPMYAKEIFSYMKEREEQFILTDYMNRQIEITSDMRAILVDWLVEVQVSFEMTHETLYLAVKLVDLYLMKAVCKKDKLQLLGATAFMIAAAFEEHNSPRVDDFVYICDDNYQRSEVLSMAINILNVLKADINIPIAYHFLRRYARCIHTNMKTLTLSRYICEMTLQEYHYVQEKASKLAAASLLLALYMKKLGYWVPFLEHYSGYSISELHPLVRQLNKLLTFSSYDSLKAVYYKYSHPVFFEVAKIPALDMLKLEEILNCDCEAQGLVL
Substitution | normalised enrichment score
K4W | 1.03
K6N | 0.264
D11R | 0.179
F12C | 0.179
R2L | 0.0292
R2P | 0.145
R2V | 0.179
D11M | 0.874
L7G | 0.0251
A1L | -0.511
I9P | 0.409
K6I | 0.369
Y3V | 0.365
R5I | 0.0096
R5T | 0.0965
L8T | -0.103
F12K | 0.128
I9T | 0.0514
N10K | -0.255
R5N | 0.12
R2A | -0.000954
Y3G | 0.00713
L8P | -0.0426
D11Y | 0.555
L8V | 0.527

Set 2
Target: Interferon regulatory factor 7, full length, phosphomimetic (IRF7, Homo sapiens, UniProt Q92985, residues 1-503, S471D/S472D/S475D/S476D/S477D/S483D/S484D/S487D)
Technique: protein-binding microarray
Form: double-stranded DNA, one strand shown
Matrix: in vitro
Concentration: 2200 nM top
Setting: 60-bp whole probe
With: salmon DNA 0.4 mg/ml
Baseline: random background probes
Reading: higher = stronger binding
Shared flanks, not repeated: GCCTAGCAC … GTCTTGATTCGCTTGACGCTGCTG
Construct (chain): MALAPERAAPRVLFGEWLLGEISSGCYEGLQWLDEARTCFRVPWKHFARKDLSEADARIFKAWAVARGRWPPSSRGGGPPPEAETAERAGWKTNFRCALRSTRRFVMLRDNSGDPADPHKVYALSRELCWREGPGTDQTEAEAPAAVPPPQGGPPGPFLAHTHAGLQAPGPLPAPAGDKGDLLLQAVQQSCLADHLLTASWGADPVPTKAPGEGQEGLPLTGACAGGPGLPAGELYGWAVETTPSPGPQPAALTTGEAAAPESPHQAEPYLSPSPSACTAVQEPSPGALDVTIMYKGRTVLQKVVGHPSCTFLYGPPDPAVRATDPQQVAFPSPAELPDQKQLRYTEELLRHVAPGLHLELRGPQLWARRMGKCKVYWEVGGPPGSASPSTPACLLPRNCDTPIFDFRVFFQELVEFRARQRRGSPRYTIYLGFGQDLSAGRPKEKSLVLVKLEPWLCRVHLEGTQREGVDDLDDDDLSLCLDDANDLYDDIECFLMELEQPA
Sequence | fitted relative affinity
TCAAATTTTAATAACACACTGTGCTAG | -0.559 z-score
CTCTTTGTTTCACTTCCTGGTGTGCTA | 5 z-score
TCATTTCTAATTTACTTACTGTGCTAG | 1.85 z-score
TCAAGACTCATAATGGCACTGTGCTAG | -0.121 z-score
TTAGACCTCAGTTTCGATTAGTGCTAG | 5.68 z-score
GTGATTTCAGTTTTCTTTTCGTGCTAG | 5.84 z-score
TCACCATTAAATTTTAAACTGTGCTAG | -4.84e-05 z-score
CTCACCCAGTCCAGACACCCGTGCTAG | 0.0691 z-score
TCATTTTTTTTTTCCCTACTGTGCTAG | 2.93 z-score
GACGATATCGGGTTTCGAGTCGTGCTA | 3.21 z-score
GACAATTTCGGGTATCGAGACGTGCTA | 2.75 z-score
GACGATCCCAGACTGGAGACGTGCTAG | -0.365 z-score
GACGGACAGGGGACTGGGGACGTGCTA | -0.64 z-score
CCAGCAGGGTTAGGCTTGCTGTGCTAG | -1.27 z-score
TTAGATATCGGACTGGGTTAGTGCTAG | 0.129 z-score
GACGGGATCCTTCTCCTGACGTGCTAG | 0.17 z-score

Set 3
Target: XBP1, bZIP domain (human)
Technique: DHFR protein complementation
Matrix: yeast
Setting: single substitutions, most at no-binding floor
Baseline: wild-type JUN-FOS pair
Reading: higher = stronger binding
Starting sequence: JUN, bZIP domain (human); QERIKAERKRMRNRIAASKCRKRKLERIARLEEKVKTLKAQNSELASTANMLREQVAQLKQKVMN; partner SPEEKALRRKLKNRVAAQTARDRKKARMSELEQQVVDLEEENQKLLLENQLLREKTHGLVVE
Substitution | binding fitness
A29C | -1.23 natural log
T37M | -0.351 natural log
Q55C | -1.11 natural log
A40R | -0.649 natural log
V35N | -1.18 natural log
Q55K | -0.503 natural log
V35K | -1.49 natural log
E54H | -1.32 natural log
L38V | -1.34 natural log
L45W | -1.38 natural log
A46Q | -0.44 natural log
S47F | -0.885 natural log
E32T | -1.14 natural log
A57P | -1.46 natural log
Q55F | -0.828 natural log
Q55I | -0.777 natural log
K39I | -1.24 natural log
N42R | -1.27 natural log
Q55H | -0.825 natural log
K34R | -0.263 natural log
N42M | -1.32 natural log
T48V | -0.93 natural log
L31M | -1.26 natural log
Q55E | -1.02 natural log
S47W | -1.16 natural log

Set 4
Target: Sal-like protein 4, full length isoform A (SALL4, Homo sapiens, UniProt Q9UJQ4, residues 1-1053)
UniProt Q9UJQ4, sequence (whole entry, looked up): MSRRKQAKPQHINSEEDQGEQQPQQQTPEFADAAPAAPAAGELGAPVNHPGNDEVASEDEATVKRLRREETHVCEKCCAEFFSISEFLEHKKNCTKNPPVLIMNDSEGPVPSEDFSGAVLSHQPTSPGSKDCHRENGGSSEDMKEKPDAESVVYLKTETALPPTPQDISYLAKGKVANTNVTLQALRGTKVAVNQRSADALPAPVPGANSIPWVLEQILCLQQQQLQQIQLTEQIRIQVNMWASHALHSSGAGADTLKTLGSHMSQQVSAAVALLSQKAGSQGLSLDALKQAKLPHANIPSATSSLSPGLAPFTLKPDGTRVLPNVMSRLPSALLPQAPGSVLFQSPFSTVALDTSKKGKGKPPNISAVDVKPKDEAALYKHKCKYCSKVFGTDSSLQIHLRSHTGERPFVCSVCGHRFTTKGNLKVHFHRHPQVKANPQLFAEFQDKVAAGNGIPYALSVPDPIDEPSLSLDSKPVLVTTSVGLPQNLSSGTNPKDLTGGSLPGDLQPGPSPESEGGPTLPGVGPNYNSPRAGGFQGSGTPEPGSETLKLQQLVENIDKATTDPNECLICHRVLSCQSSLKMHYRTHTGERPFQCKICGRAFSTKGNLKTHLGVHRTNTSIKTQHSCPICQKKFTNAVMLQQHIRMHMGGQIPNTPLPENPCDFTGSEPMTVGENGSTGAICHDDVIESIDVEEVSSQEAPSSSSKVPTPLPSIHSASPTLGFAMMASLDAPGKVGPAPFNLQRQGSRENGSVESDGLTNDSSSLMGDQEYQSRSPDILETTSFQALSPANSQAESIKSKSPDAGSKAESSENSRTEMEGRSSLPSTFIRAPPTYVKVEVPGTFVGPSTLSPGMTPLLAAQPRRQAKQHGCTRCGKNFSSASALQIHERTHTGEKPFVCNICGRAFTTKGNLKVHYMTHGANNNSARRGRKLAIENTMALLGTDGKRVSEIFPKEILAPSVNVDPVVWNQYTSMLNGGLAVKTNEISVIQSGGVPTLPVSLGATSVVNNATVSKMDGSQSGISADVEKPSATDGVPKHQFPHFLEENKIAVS
Technique: universal PBM
Form: double-stranded DNA, one strand shown
Matrix: in vitro
Concentration: 600 nM
Setting: 8-mer, flanks averaged, mean of replicates
Reading: higher = stronger binding
Sequence | E-score
TGGTCCAA | -0.168
ACGTATCT | 0.0441
TCGTACAA | 0.24
CGACTGGA | -0.219
ATAACGTG | 0.217
TCGGGCCA | -0.291
CGGCAGAA | -0.191
ACAATCAG | 0.0581
GCAGTCGA | -0.14
TTGCGCAA | 0.103
CGATTGGA | -0.0675
TTCCACAA | 0.2
ATGCAACC | 0.105
CTGACGTC | -0.0679
GACTAGAC | -0.0309
ATTCCATG | 0.0364
CCCGAACA | -0.051
CATGTTCC | -0.0653
AGGCCGGC | -0.247
AGTTTTAG | 0.0393
AGGTGCAC | -0.23
CAATATTA | 0.434

Mixed results
Molecule | target | test | system | setting | scale | endpoint | value
PhoQ, residues 284 288 289 292 302 303 NLCILV | PhoP, residues 12 14 15 18 19 LWHSL (Escherichia coli, UniProt P23836) | Sort-seq, measured: YFP reporter | E. coli | PhoQ-PhoP variant library, with: 10 µM Mg2+ | baseline: high Mg2+ state, higher = stronger signaling | fold induction | 13.2 and 16.7
